Assay results pooled from the literature.
Every numbered part comes from another study and shows a few of its results, in no order.
UniProt P15056, sequence (whole entry, looked up): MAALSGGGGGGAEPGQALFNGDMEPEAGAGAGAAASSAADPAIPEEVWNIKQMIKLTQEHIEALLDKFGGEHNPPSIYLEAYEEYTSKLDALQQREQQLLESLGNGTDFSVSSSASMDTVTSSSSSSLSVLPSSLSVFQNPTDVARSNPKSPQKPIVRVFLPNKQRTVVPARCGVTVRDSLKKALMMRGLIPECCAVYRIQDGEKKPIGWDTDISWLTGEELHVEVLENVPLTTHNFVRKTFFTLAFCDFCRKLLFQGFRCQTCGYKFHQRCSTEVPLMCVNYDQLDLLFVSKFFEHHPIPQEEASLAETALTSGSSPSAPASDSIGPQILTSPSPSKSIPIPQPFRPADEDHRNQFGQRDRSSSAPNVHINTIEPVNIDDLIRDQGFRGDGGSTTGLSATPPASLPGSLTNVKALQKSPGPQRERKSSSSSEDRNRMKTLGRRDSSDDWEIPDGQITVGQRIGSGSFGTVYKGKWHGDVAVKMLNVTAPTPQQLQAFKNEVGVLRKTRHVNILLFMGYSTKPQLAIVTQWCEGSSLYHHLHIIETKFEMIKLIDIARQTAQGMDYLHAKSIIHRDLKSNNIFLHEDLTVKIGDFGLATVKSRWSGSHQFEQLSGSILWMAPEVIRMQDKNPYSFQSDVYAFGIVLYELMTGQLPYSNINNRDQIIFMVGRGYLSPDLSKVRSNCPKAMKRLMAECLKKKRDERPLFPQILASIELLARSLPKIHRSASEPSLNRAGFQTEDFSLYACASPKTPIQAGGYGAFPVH
UniProt P08912, sequence (whole entry, looked up): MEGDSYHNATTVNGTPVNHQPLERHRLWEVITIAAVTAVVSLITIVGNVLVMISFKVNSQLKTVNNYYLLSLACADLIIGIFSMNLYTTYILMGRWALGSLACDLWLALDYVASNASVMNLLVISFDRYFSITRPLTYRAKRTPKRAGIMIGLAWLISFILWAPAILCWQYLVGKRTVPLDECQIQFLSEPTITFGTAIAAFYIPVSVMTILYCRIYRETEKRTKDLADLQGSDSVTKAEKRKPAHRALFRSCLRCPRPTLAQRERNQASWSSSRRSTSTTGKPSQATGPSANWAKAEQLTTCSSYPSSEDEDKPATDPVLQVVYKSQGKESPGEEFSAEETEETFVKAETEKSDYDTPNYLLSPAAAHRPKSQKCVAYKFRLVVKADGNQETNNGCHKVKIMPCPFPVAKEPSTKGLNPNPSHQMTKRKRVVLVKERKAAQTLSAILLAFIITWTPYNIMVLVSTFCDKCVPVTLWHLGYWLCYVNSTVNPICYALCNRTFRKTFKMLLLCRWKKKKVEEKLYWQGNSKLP
UniProt P18825, sequence (whole entry, looked up): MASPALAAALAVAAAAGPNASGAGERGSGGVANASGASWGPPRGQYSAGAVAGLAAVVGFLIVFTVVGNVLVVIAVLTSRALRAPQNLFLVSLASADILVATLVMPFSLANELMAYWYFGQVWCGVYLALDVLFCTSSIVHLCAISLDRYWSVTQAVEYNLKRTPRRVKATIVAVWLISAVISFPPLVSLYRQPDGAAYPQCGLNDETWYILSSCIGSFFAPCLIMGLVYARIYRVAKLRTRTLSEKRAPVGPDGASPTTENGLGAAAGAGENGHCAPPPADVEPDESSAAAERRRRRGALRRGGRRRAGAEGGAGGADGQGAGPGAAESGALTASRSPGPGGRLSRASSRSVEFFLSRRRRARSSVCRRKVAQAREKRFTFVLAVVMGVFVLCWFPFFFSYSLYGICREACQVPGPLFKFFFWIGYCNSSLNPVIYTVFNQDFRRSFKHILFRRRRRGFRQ
UniProt P21917, sequence (whole entry, looked up): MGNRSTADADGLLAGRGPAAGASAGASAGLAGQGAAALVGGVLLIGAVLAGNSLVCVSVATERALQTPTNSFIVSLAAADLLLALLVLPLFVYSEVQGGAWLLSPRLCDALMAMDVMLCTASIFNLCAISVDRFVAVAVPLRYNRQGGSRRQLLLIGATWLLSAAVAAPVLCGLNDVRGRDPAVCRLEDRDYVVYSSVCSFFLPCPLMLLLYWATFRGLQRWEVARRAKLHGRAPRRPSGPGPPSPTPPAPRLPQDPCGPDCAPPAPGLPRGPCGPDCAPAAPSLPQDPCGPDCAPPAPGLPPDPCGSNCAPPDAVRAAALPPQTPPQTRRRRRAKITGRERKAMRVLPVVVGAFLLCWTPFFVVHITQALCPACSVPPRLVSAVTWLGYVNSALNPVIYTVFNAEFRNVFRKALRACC
UniProt P48729, sequence (whole entry, looked up): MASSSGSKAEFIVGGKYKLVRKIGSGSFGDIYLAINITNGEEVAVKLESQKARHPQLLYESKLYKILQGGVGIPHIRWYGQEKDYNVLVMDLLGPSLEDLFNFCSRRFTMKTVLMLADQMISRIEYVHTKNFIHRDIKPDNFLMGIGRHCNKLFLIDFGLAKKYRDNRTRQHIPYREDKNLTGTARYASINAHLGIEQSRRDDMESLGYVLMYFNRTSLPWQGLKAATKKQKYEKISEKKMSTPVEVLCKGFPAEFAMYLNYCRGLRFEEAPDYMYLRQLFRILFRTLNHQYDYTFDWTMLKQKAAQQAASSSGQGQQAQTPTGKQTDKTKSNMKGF

Sample 1 — observed: enzyme activity; mode: inhibitor; concentration: 0.5 µM; baseline: control
Target: Fibroblast growth factor receptor 4 (FGFR4, Homo sapiens, UniProt P22455)
UniProt P22455, sequence (whole entry, looked up): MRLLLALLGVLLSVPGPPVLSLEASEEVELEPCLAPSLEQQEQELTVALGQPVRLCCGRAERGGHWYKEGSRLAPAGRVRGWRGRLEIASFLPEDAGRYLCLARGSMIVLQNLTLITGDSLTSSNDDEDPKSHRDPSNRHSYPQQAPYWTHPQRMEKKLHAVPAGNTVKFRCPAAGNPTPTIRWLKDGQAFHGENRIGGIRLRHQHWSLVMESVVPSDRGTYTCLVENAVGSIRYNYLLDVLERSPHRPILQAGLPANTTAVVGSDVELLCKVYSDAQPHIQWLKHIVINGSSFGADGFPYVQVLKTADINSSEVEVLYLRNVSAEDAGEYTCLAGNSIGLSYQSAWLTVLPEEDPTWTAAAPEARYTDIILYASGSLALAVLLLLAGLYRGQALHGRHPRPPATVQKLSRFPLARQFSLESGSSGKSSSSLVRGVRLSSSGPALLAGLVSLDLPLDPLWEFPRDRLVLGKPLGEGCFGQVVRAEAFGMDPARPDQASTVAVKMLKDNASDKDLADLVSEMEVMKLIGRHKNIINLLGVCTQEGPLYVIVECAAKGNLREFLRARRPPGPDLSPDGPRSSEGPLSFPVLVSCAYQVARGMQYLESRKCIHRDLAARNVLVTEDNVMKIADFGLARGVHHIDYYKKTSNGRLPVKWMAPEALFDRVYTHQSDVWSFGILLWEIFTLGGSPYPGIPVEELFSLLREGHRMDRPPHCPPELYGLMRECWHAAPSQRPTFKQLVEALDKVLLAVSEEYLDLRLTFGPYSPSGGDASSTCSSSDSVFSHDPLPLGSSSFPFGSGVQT
CCc1[nH]c(-c2ccc(OC)cc2)nc1-c1ccncc1 has a remaining activity of 95.9%.
With Cc1cncc2cccc(S(=O)(=O)N3CCCN(C(=O)CN)C[C@@H]3C)c12 the remaining activity was 79.5%.
The remaining activity of O=C1Cc2c([nH]c3ccc([N+](=O)[O-])cc23)-c2ccccc2N1 is reported as 90.6%.
Fc1ccc(-c2nc3n(c2-c2ccncc2)CCS3)cc1 has a remaining activity of 82.8%.
For O=C1NC(=O)C(c2c[nH]c3ccccc23)=C1c1c[nH]c2ccccc12, the remaining activity was 87.8%.
Oc1ccc(Nc2nc(-c3ccc(Cl)cc3)cs2)cc1 has a remaining activity of 71.6%.
The remaining activity of CC[n+]1c(/C=C/N(C)c2ccccc2)n(-c2ccccc2)c2ccc(-c3nc4ccccc4s3)cc21 is reported as 84.1%.
With NC(=O)c1ccc(N(C(N)=O)c2c(F)cccc2F)nc1-c1ccc(F)cc1F the remaining activity was 96.2%.
Cc1ccc(NC2=CC(=O)c3sc(C)nc3C2=O)cc1 gave a remaining activity of 86.7%.
COc1ccc(S(=O)(=O)N(CCO)c2ccccc2CN(C)CC=Cc2ccc(Cl)cc2)cc1 gave a remaining activity of 98.3%.
Nc1ncnc2c1cnn2-c1ccccc1 has a remaining activity of 94.8%.
Cc1cc(Nc2nc(-c3ccccc3)nc3ccccc23)n[nH]1 gave a remaining activity of 81.9%.
With CC(=O)c1ccc(N2CCOCC2)cc1O the remaining activity was 108%.
For Nc1nccc(-c2c(-c3ccc(F)cc3)ncn2C2CCNCC2)n1, the remaining activity was 85.7%.
CC#CC(=O)Nc1cc2c(Nc3ccc(F)c(Cl)c3)ncnc2cn1 has a remaining activity of 102%.
O=S(=O)(NCCNC/C=C/c1ccc(Br)cc1)c1cccc2cnccc12 gave a remaining activity of 85.3%.
N#CC(=C(N)Sc1ccc(N)cc1)c1ccccc1C(F)(F)F has a remaining activity of 108%.
Nc1nc(Nc2ccc(S(N)(=O)=O)cc2)nn1C(=O)c1c(F)cccc1F has a remaining activity of 90.3%.
CC(C)(C)n1nc(Cc2cccc3ccccc23)c2c(N)ncnc21 gave a remaining activity of 88.4%.
The remaining activity of CCCC(=O)Oc1ccc2[nH]c(C(=O)c3cc4ccccc4[nH]3)cc2c1 is reported as 90.9%.
COc1cc(Nc2c(C#N)cnc3cc(OCCCN4CCN(C)CC4)c(OC)cc23)c(Cl)cc1Cl has a remaining activity of 94.1%.
The remaining activity of CSc1nc(-c2ccnc(N[C@@H](C)c3ccccc3)c2)c(-c2ccc(F)cc2)[nH]1 (racemic) is reported as 102%.

Sample 2 — observed: enzyme activity; mode: inhibitor; concentration: 10 µM
Target: Calcium/calmodulin-dependent protein kinase type II subunit alpha (CAMK2A, Homo sapiens, UniProt Q9UQM7)
UniProt Q9UQM7, sequence (whole entry, looked up): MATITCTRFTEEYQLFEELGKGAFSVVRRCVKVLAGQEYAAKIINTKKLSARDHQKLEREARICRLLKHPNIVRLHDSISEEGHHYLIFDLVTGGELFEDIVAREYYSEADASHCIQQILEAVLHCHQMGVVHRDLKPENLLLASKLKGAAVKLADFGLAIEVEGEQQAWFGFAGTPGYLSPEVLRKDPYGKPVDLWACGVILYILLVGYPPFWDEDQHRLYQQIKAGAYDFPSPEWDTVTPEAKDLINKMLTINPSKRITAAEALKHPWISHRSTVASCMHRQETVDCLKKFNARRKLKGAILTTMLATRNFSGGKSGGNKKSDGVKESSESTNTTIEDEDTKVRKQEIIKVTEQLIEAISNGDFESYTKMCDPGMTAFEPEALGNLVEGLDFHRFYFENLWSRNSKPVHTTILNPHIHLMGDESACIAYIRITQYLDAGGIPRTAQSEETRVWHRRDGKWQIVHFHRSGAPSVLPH
With CC1=C(C/C=C(\C)CCCC(C)CCCC(C)CCCC(C)C)C(=O)c2ccccc2C1=O (stereo not shown) the inhibition was 2%.
The inhibition of Oc1c(I)cc(Cl)c2cccnc12 is reported as -2%.
With N[C@@H](CC(=O)N[C@@H](CC(=O)O)C(=O)O)C(=O)O the inhibition was 25%.
COc1ccc(-c2oc3cc(O)cc(O)c3c(=O)c2O)cc1O has an inhibition of -6%.
COc1nc(C)nc(Cl)c1NC1=NCCN1 has an inhibition of -5%.
The inhibition of O=C(O)[C@H]1O[C@@H](Oc2c(-c3ccc(O)cc3)oc3cc(O)cc(O)c3c2=O)[C@H](O)[C@@H](O)[C@@H]1O is reported as 48%.
With Cc1cc(=O)c2c(O)c3c(O)cc(O)c4c5c(O)cc(O)c6c(O)c7c(=O)cc(C)cc7c(c65)c(c2c1)c34 the inhibition was 18%.
The inhibition of CCCCCCCCCCCCCCCO is reported as -54%.
CCC1=C(C)CN(C(=O)NCCc2ccc(S(=O)(=O)NC(=O)N[C@H]3CC[C@H](C)CC3)cc2)C1=O gave an inhibition of 0%.

Sample 3 — observed: enzyme activity; concentration: 5 µM; baseline: untreated control
Structure (SMILES): O=C(Nc1cnn(-c2csc(C(=O)NC3COC3)c2)c1)Nc1c(F)cccc1Cl
ERBB2 (Homo sapiens, UniProt P04626) — remaining activity: 95.5%.
The remaining activity was 97.5% (BRAF (Homo sapiens, UniProt P15056)).
It gave 93% for remaining activity (STK3 (Homo sapiens, UniProt Q13188)).
For BMX (Homo sapiens, UniProt P51813): remaining activity read 94.8%.
It gave 88.5% for remaining activity (FYN (Homo sapiens, UniProt P06241)).
It gave 78.5% for remaining activity (RPS6KA3 (Homo sapiens, UniProt P51812)).
The remaining activity was 90.8% (MYLK4 (Homo sapiens, UniProt Q86YV6)).
The remaining activity was 99.3% (MAP2K5 (Homo sapiens, UniProt Q13163)).
It gave 89.7% for remaining activity (PTK2B (Homo sapiens, UniProt Q14289)).
For TAOK3 (Homo sapiens, UniProt Q9H2K8): remaining activity read 88%.
It gave 74.4% for remaining activity (CSNK1A1 (Homo sapiens, UniProt P48729)).
ALK (Homo sapiens, UniProt Q9UM73) — remaining activity: 84.2%.
The remaining activity was 86.9% (SYK (Homo sapiens, UniProt P43405)).
It gave 84.2% for remaining activity (MET (Homo sapiens, UniProt P08581)).
It gave 84.7% for remaining activity (TAOK2 (Homo sapiens, UniProt Q9UL54)).
For AKT3 (Homo sapiens, UniProt Q9Y243): remaining activity read 97%.

Sample 4 — concentration: 10 µM
SMILES: Cc1cc2c(-c3ccco3)cnc(N[C@@H]3CCN(C)C[C@H]3C(=O)NC3CCCCC3)c2[nH]c1=O
The inhibition was 15.9% (HRH4 (Homo sapiens, UniProt Q9H3N8); ligand displacement).
CHRM5 (Homo sapiens, UniProt P08912); ligand displacement — inhibition: 16.3%.
ADRB2 (Homo sapiens, UniProt P07550); ligand displacement — inhibition: 19.8%.
HTR3A (Homo sapiens, UniProt P46098); cell-free assay — inhibition: 31.8%.
It gave 8.58% for inhibition (ADRA2C (Homo sapiens, UniProt P18825); ligand displacement).
It gave 0.27% for inhibition (CHRM2 (Homo sapiens, UniProt P08172); ligand displacement).
The inhibition was -0.72% (HRH1 (Homo sapiens, UniProt P35367); ligand displacement).
ADRA2A (Homo sapiens, UniProt P08913); ligand displacement — inhibition: -3.97%.
The inhibition was -15.9% (HTR7 (Homo sapiens, UniProt P34969); ligand displacement).
It gave -37.4% for inhibition (HTR6 (Homo sapiens, UniProt P50406); ligand displacement).
TMEM97 (Homo sapiens, UniProt Q5BJF2); ligand displacement — inhibition: 9.26%.
For ADRA1D (Homo sapiens, UniProt P25100); ligand displacement: inhibition read 36.6%.
It gave 11.8% for inhibition (ADRA1B (Homo sapiens, UniProt P35368); ligand displacement).
It gave 97.9% for inhibition (DRD4 (Homo sapiens, UniProt P21917); ligand displacement).

Repeated from above (sample 4):
The inhibition was 15.9% (HRH4 (Homo sapiens, UniProt Q9H3N8); ligand displacement).
CHRM5 (Homo sapiens, UniProt P08912); ligand displacement — inhibition: 16.3%.
ADRB2 (Homo sapiens, UniProt P07550); ligand displacement — inhibition: 19.8%.
HTR3A (Homo sapiens, UniProt P46098); cell-free assay — inhibition: 31.8%.
It gave 8.58% for inhibition (ADRA2C (Homo sapiens, UniProt P18825); ligand displacement).
It gave 0.27% for inhibition (CHRM2 (Homo sapiens, UniProt P08172); ligand displacement).
